Measured values pooled from the literature.
Values joined by “and” are separate records of one study, mostly repeats; a detail may differ. ± marks the error that the study gave.

Structure (SMILES)	target or system	test	system	setting	how to read	quantity	value
O=C(C=Cc1ccc(O)c(O)c1)OC1CC(O)(C(=O)O)CC(OC(=O)C=Cc2ccc(O)c(O)c2)C1O (stereo not shown)	Vero E6			100 µM		cytotoxicity	0%
CN(C)CCCNC(=O)[C@@H]1NC(=O)[C@@H]2Cc3ccc(cc3)Oc3cc4cc(c3O)-c3ccc5c(c[nH]c5c3)C[C@@H](NC(=O)C(NC(=O)CCCCCN)c3ccc(O)cc3)C(=O)N[C@H](c3ccc(O)cc3)C(=O)N[C@H]4C(=O)N[C@@H](C(=O)N2C)c2ccc(cc2)Oc2cc1ccc2O (stereo partly shown)	human red blood cells		PBS	64 µg/mL, 1 h, pH 7.4, 37 °C		hemolysis	0%
Cc1ccc(OCCN(C)C)cc1C(=O)N[C@H](C)c1cc(-c2cncs2)nc2ccccc12	Vero E6			125 µM		viability	0% and 1.73%
CC[C@H](C)[C@H](NC(=O)[C@H](CCCNC(=N)N)NC(=O)[C@H](Cc1c[nH]c2ccccc12)NC(=O)[C@H](CCCNC(=N)N)NC(=O)[C@H](Cc1c[nH]c2ccccc12)NC(=O)[C@H](Cc1c[nH]c2ccccc12)NC(=O)[C@H](Cc1c[nH]c2ccccc12)NC(=O)[C@H](CCCNC(=N)N)NC(=O)[C@H](Cc1c[nH]c2ccccc12)NC(=O)[C@@H](N)CCCNC(=N)N)C(N)=O	mouse red blood cells					minimal haemolytic concentration	32 µM
Cc1nc2cccc(OCC(C)(C)C(=O)NC(C)C)c2c(N)c1C(=O)[O-].[Na+]	Escherichia coli	reverse mutation, preincubation	WP2 uvrA	0.80 mg/plate, with rat liver S9		revertant colonies	39 ± 8 colonies/plate
CC(=O)NCCCC[C@@H]1NC(=O)[C@H](Cc2c[nH]c3c(C)cccc23)NC(=O)[C@H]([C@@H](C)O)NC(=O)[C@H](CC(N)=O)NC(=O)[C@@H](NC(C)=O)C(C)(C)SSC(C)(C)[C@@H](C(=O)N[C@@H](Cc2ccc(OCCN)cc2)C(=O)N[C@@H](Cc2ccc3ccccc3c2)C(=O)NC2(C(=O)N[C@@H](CCC(=O)O)C(=O)N[C@@H](CC(N)=O)C(=O)N[C@@H](Cc3cccnc3)C(=O)N(C)CC(N)=O)CCOCC2)NC1=O	Albumin (ALB, Homo sapiens, UniProt P02768)	equilibrium dialysis	purified human albumin	0.01 µM		protein binding	29.6 ± 4.1 % bound
CNC(=O)C[C@H](Cc1ccccc1)NC(=O)[C@@H](Cc1ccc(Cl)cc1Cl)NC(=O)[C@H](N)Cc1ccccc1C#N	Huh-7-ACE2	CellTiter-Glo		0.000763 µM, 48 h, unit not given	baseline: DMSO	viability	0.999 and 0.96 and 1.03
CCCCCC1=C(NCC)C(=O)C(C/C=C(\C)CCC=C(C)C)=C(O)C1=O	human peripheral blood lymphocytes			10 µg/mL, 24 h, without S9		cytostasis	-9%
CC(C)(C)C(=O)OCOP(=O)(OCOC(=O)C(C)(C)C)C1CCCN(O)C1=O (stereo not shown)	MDA-MB-468					CC50	49.5 µM
Cc1ccc(N2CCC3(CC2)CN(C)C3)cc1C(=O)N[C@H](C)c1cc(-c2cnn(C)c2)nc2ccccc12	Vero E6			500 µM		viability	0.714% and 1.43% and 1.79%
O=C1NC2(CC2)COc2ncc(F)cc2[C@H]2COCCN2c2ccn3ncc1c3n2			Sprague-Dawley rat, male, testes	oral, 20 mg/kg/day, 4 weeks, end of treatment		organ-to-brain weight ratio	153 ± 8.23%
CCn1cc(-c2cc([C@@H](C)NC(=O)c3cc(OCCN(C)C)ccc3C)c3ccccc3n2)c(C(F)(F)F)n1	Vero E6			125 µM		viability	-0.192%
CNC(=O)C[C@H](Cc1ccc(F)cc1)NC(=O)[C@@H](Cc1ccc(Cl)cc1Cl)NC(=O)[C@H](N)Cc1ccccc1C#N	Huh-7-ACE2	CellTiter-Glo		6.25 µM, 48 h, unit not given	baseline: DMSO	viability	0.936 and 0.91 and 0.838

For quick reference, copied from above:
Structure (SMILES)	target or system	test	system	setting	how to read	quantity	value
O=C(C=Cc1ccc(O)c(O)c1)OC1CC(O)(C(=O)O)CC(OC(=O)C=Cc2ccc(O)c(O)c2)C1O (stereo not shown)	Vero E6			100 µM		cytotoxicity	0%
